Published values pooled from the literature.

C=CCn1c(=O)c2cnc(Nc3ccc(N4CCN(C)CC4)cc3)nc2n1-c1cccc(C(C)(C)O)n1
Cmax (human; oral, 175 mg twice daily, cycle 1 day 17, added: durvalumab 1500 mg IV; geometric mean): 960 nM

CCn1cc(C(=O)N2CCOCC2)c(=O)c2cc(NC3Cc4ccccc4C3)cnc21
Cmax (human, fed; oral tablet, 300 mg single dose, arithmetic mean): 1530 ng/mL

C[C@@H](Nc1cc(F)cc(F)c1)c1cc(C(=O)N(C)C)cc2c(=O)cc(N3CCOCC3)oc12
Cmax (human; 60 mg twice daily, vistusertib alone, geometric LSM): 364 ng/mL

CCOc1c([C@H](C)n2nc(C)c3c(N)ncnc32)cc(Cl)c(F)c1[C@@H]1CNC(=O)C1
Cmax (human, B-cell malignancies, plasma; oral, 30 mg, day 15, geometric mean): 2300 nM

C[C@@H]1CCO[C@H]2Cn3cc(C(=O)NCc4ccc(F)cc4F)c(=O)c(O)c3C(=O)N12
Cmax (human, body weight 30 to <40 kg, plasma; oral, 25 mg, film-coated tablet, steady state): 1930 ng/mL

C=CC(=O)N(C)CCOc1c(N)ncnc1-c1cc(F)cc(NC(=O)c2ccc(C3CC3)cc2F)c1C
Cmax (human, whole blood; oral, 50 mg once daily, day 1): 76.5 ng/mL

CNC(=O)c1ccc(-c2cnc3ncc(Cc4ccc5ncccc5c4)n3n2)cc1F
Cmax (human severe hepatic impairment NCI; oral, 200 mg single dose, geometric mean): 950 ng/mL

COc1ncc(-c2nc3c(n2C(C)C)[C@H](c2ccc(Cl)cc2)N(c2cc(Cl)cn(C)c2=O)C3=O)c(OC)n1
Cmax (LC-MS/MS; human, plasma; oral, 400 mg, cycle 1 day 1, high-dose arm): 3750 ng/mL

COc1cc(N2CCC(N3CCN(C)CC3)CC2)ccc1Nc1ncnc(Nc2ccccc2S(=O)(=O)C(C)C)n1
Cmax (human, plasma; oral, 125 mg, day 1): 317 ng/mL

Cl.[2H]C([2H])([2H])CC(=O)c1cnc(NC(=O)C2CC2)cc1Nc1cccc(-c2ncn(C([2H])([2H])[2H])n2)c1OC
Cmax (geometric mean; human; oral, 20 mg twice daily, day 1, fasted, tablet, multiple dose): 132 ng/mL

Repeated from above:
CNC(=O)c1ccc(-c2cnc3ncc(Cc4ccc5ncccc5c4)n3n2)cc1F
Cmax (human severe hepatic impairment NCI; oral, 200 mg single dose, geometric mean): 950 ng/mL
